Experimental data pooled from the literature.
A part holds a random share of what one study measured.

Set 1 — method: protein-binding microarray; molecule type: double-stranded DNA, one strand shown; matrix: in vitro; tested at: 250 nM; notes: 60-bp whole probe; together with: salmon DNA 0.4 mg/ml; reference: random background probes; reading: higher = stronger binding; endpoint: log fluorescence; shared flanks, not repeated: GCCTAGCAC … GTCTTGATTCGCTTGACGCTGCTG
Target: Interferon regulatory factor 7, full length, phosphomimetic (IRF7, Homo sapiens, UniProt Q92985, residues 1-503, S101K/S471D/S472D/S475D/S476D/S477D/S483D/S484D/S487D)
UniProt Q92985, sequence (whole entry, unmodified, looked up): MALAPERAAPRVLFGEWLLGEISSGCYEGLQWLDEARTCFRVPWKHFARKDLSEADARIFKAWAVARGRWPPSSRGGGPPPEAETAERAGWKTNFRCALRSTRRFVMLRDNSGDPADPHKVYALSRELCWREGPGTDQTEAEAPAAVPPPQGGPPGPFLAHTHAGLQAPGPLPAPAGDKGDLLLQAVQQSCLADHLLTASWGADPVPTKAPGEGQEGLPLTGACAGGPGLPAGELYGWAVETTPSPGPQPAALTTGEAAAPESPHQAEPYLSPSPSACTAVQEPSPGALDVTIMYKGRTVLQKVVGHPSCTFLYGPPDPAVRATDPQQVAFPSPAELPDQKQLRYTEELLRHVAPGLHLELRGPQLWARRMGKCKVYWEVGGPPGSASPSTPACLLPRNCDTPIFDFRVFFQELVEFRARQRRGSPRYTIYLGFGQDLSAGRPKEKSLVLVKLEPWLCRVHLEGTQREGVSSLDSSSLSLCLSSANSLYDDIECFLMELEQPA
Strand = GTACCACTCCAGTTCTGGGAGTGCTAG; result = 1.53 z-score
Strand = AACGGTATCCTTTTCCTGACGTGCTAG; result = 1.06 z-score
Strand = GACGGTATCCTACTGCCGACGTGCTAG; result = -0.102 z-score
Strand = TCATTTTTCATCATTGCACTGTGCTAG; result = 0.88 z-score
Strand = GACGGTTCCCTTTACCTGACGTGCTAG; result = 1.21 z-score
Strand = TTTGGCTTTCCTTTATGTCCGTGCTAG; result = 0.0104 z-score
Strand = TTAGGTTACGGGTTTCGGTTAGTGCTA; result = 6.65 z-score
Strand = GACGGTTTCGGTATGGGGACGTGCTAG; result = 10.2 z-score
Strand = TTAGGTCTACTTATCCTTTAGTGCTAG; result = 0.422 z-score
Strand = TTGGTGCTCATTTTTTTTGCGTGCTAG; result = -0.674 z-score
Strand = GTGTATATGGACGTCTGAAGGTGCTAG; result = -0.228 z-score
Strand = TTAGGTCTCCTAATGCTTTAGTGCTAG; result = 0.227 z-score
Strand = GGATGTGTCTTAAATAGGGCAGTGCTA; result = -0.402 z-score
Strand = GAAGGACTGGGACTGGGGACGTGCTAG; result = -0.552 z-score
Strand = TTGGGTTTCGACTTTCGGTTAGTGCTA; result = 9.71 z-score
Strand = GACGGTTTCGGGTATCGGGCCGTGCTA; result = 6.52 z-score
Strand = TTGGAACTGAGTATCGATTAGTGCTAG; result = 0.591 z-score
Strand = TCATTTTTCCCTCTGGAACTGTGCTAG; result = 1.32 z-score
Strand = TTAGGTTCCCTTGTCCTTTAGTGCTAG; result = 0.721 z-score

Set 2 — method: RNA Bind-n-Seq; molecule type: RNA; matrix: in vitro; tested at: 200 nM; notes: whole 134-nt RNA, ends assumed; together with: 150 mM LiCl; reference: input library; reading: higher = stronger binding; endpoint: log2 enrichment; library: 7-deaza-guanosine replaces G
Target: Ras GTPase-activating protein-binding protein 1, full length (G3BP1, Homo sapiens, UniProt Q13283)
UniProt Q13283, sequence (whole entry, looked up): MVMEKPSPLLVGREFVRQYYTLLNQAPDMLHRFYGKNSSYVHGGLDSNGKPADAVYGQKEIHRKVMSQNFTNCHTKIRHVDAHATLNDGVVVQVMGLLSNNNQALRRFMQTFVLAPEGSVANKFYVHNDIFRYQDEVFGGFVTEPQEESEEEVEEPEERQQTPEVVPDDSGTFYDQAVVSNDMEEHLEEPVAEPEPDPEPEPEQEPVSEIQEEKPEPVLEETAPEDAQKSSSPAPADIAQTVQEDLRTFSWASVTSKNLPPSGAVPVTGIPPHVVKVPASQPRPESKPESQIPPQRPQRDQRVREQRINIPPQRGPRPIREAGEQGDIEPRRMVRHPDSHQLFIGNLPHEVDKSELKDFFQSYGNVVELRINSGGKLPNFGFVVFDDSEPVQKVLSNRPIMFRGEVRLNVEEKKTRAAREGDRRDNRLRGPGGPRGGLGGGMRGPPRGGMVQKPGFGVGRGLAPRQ
Shared flanks, not repeated: GGGAGUUCUACAGUCCGACGAUC … UGGAAUUCUCGGGUGUCAAGG
Strand = UCAAGUCCUGUGCUACACAUCGUAUGUACCGAAUCGGUUUGGGUUUGGUUUGGGAAAGUAUUAUGUUACGCCGUUCGGAUCUGCACUUCC; result = -0.68
Strand = UUUGCUGAUUUCUGGCUGGCGGAUCAGCUGAACAGCCUGUCAGUGAUACUGAUGGACCUGGAAUAUAUGAUCUGCUUCUACAGUUUGGAG; result = -3.08
Strand = CACAGACAACACGCACCCACACAGACACAGAGGGAAAGGGUUGGGAUGGGGACAGGGUGCACAGCAGGGCGGGGUAGGACCCCAGCCCCU; result = -1.11
Strand = UUACAGAUGUAGAGCUAAAACGACUGAAGGAUGCUUUCAAGAGGACCUGUGGACUCUCAUAUUACAUGGGCCAGCACUGCUUCAUCCGGG; result = 1.14
Strand = ACCAUGCAGGUGGGCAUCUUUGGGAAGUGGGGCAAGGGGGGGAUAGGGAGGGGGGUAACAAAUUGGGAACAGGUGGUCCCAGGUCGUUUC; result = 0.00706
Strand = CACAGACAACACGUACCCACACAGACACAGAGGGAAGGGGUUGGGAUGGGGACAGGGUGCACAGCAGGGCGGGGUAGGACCCCAGCCCCU; result = -0.429
Strand = GUCCUGUGCUACACAUCGUAUGUACCGAAUCAAAUUUAAAUUUUUAAACCCCCCCAAAAAAGUAUUAUGUUACGCCGUUCGGAUCUGCAC; result = 1.09
Strand = AAGUCCUGUGCUACACAUCGUAUGUACCGAAUCGGUUUUUUUGGAAAAAAAGGUGGAAAGUAUUAUGUUACGCCGUUCGGAUCUGCACUU; result = -2.39

Set 3 — method: RNA Bind-n-Seq; molecule type: RNA; matrix: in vitro; tested at: 365 nM; reference: no-protein control; reading: higher = stronger binding; endpoint: RBNS enrichment (R)
Target: RNA binding protein fox-1 homolog 2, RRM domain, GST-SBP tag (RBFOX2, Homo sapiens, UniProt O43251-10, residues 100-194)
Notes: natural RNA segment, single round, ends assumed
Shared flanks, not repeated: GGGAGUUCUACAGUCCGACGAUC … UGGAAUUCUCGGGUGCCAA
Residues (chain): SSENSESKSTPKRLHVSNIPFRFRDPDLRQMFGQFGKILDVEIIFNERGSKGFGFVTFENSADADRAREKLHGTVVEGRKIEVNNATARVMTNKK
Strand = GAGCUGUUUUUGUAAAAUGACUGCUGACAGCAAGUUCUUGCUGCUCUCCAAUCUCAUCAGACAGUAGAAUGUAGGGAAAAACUUUUGCCCGACUGAUUUUUAAAAAGGAA; result = 0.494
Strand = CCUGCACUGCAGCCCAGCCCCGGACAGCUCCAGGAUCCGUGCAGUGGCUGCGCCGCCAGGCCCCAACAAUGGGGACCCUGGGGUGGCUCCUGGCCAAGUGUUCUCUGUUU; result = 0.225
Strand = ACCUGCCACCAGCAGCCCGCGAGGGAAUGCGAGGUGUGAUUGUCCCAGUGGCUCUCAACCCAUGCGCUACCAAAUACGCCUGGGCAGCCGGGACGGGCCGGCGGGCACCA; result = 0.184
Strand = CUAAGCAUUCAGAAGACAGAGGCAGGAAGAAAAUUCAAAAAUGGGGCUGGAGAGAUGGCUCAGUGGUUAAAAGCACUGGCUGCUCUUGGUCAGGACACUAGUUCAGUUCC; result = 0.35
Strand = CAUAUUAUUUUUAGAUGAUGUAACAUAGCCAUCAAAAUUAAUAUUAUGUAAUGCCUAAUACUUAGUAUGUAAAUGUCACGAGAUCAUUUUUACAUUAAACGUGAAAAAAA; result = 0.64
Strand = GUCUGGCUCAAGUGGUGGAAGAGUGAGGGAGUCUGCAGUUUGUAAGUCUCGUUCUGUUGUGUUCUGAGAAGAUGCCUGAGGCAGUAUGGGAGUUUCAACACCCCUGCUGU; result = 0.732
Strand = UGGCCCAUUAAGAGGCCUCAGUGGGAGAAGGGCUAAAAAGAGCCUGAGGUCAUGCGGUUGGACACUGAACUUGGUAAAGACGUCCUUCCCCAAGGAAGCCAUAAUGUGCA; result = 0.968
Strand = AGAAGCUGUGGGGCUGCCUGCCAGGCAGGAUCAUGGCUGCCAUCAAGCCUUUUCUGGAUCCAGCCAUCAAGGACAUGUUUGUGGUGUGAUGCACACUUUUGCAAGCGUGU; result = 0.323

Set 4 — method: protein binding microarray; molecule type: double-stranded DNA, one strand shown; matrix: in vitro; tested at: not given; reference: not given; reading: higher = stronger binding; endpoint: E-score
Target: Histone acetyltransferase KAT6A, winged helix 1, GST fusion (KAT6A, Homo sapiens, UniProt Q92794, residues 1-85)
Notes: 8-mer, flanks averaged, mean of 2 arrays, mostly near background
Target sequence (chain): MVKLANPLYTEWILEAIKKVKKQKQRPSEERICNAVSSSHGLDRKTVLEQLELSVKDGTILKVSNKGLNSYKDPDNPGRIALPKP
Strand = CGTAGTCC; result = 0.152
Strand = GGGTCCCA; result = 0.00465
Strand = GATTTGTA; result = -0.154
Strand = CCATTACA; result = -0.0157
Strand = AAACGAAC; result = -0.17
Strand = AAGGTCAT; result = -0.0866
Strand = CACCACGG; result = 0.156
Strand = ACGCGCCT; result = 0.298
Strand = ATGCGTGG; result = 0.0535
Strand = GCCCGTGA; result = 0.294
Strand = ATTTCTTA; result = -0.225
Strand = CTCGGTAC; result = 0.0415
Strand = GCCAACGC; result = 0.194
Strand = ATCTAGCG; result = 0.139
Strand = AGAGTGGC; result = -0.125
Strand = AGCAATAG; result = -0.0679
Strand = GGTGCTGA; result = -0.0544
Strand = CAATTTAA; result = -0.213
Strand = AATGGGTA; result = -0.154
Strand = ACCTGACA; result = -0.269
Strand = GAAGCCCA; result = -0.131
Strand = ACCTATAG; result = -0.142
Strand = ACTGAAAC; result = -0.1
Strand = CCTGCACA; result = -0.148
Strand = ATGTAAGC; result = -0.0166

For quick reference, copied from above (set 1):
Strand = GTGTATATGGACGTCTGAAGGTGCTAG; result = -0.228 z-score
Strand = TTAGGTCTCCTAATGCTTTAGTGCTAG; result = 0.227 z-score
Strand = GGATGTGTCTTAAATAGGGCAGTGCTA; result = -0.402 z-score
Strand = GAAGGACTGGGACTGGGGACGTGCTAG; result = -0.552 z-score
Strand = TTGGGTTTCGACTTTCGGTTAGTGCTA; result = 9.71 z-score
Strand = GACGGTTTCGGGTATCGGGCCGTGCTA; result = 6.52 z-score
Strand = TTGGAACTGAGTATCGATTAGTGCTAG; result = 0.591 z-score
